Measurements gathered from unrelated publications.
Numbered parts are unrelated; each lists some results of a single study.

Block 1 — technique: RNA Bind-n-Seq; molecule type: RNA; sample: in vitro; concentration: not given; relative to: input RNA pool; reading: higher = stronger binding; quantity: bound/input enrichment
Target: RING finger protein unkempt homolog, zinc fingers 1-6, GST-SBP tag (UNK, Homo sapiens, UniProt Q9C0B0, residues 30-357)
Sequence of UniProt Q9C0B0 (30-357, looked up): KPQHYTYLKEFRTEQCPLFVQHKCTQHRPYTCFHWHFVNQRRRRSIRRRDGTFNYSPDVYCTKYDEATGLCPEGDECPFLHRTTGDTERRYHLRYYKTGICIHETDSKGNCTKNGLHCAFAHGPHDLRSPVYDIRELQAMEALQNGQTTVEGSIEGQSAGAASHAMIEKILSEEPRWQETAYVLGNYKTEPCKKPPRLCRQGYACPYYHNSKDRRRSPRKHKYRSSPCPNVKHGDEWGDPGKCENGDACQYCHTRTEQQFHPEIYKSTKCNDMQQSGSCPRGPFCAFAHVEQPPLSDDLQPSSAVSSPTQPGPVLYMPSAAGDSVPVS
Setting: RNA with constant flanks, human and mouse sites, ends assumed
Constant ends, left off below: GGGAGUUCUACAGUCCGACGAUC … CAACAGAGGAUUGAGCAUCA
Strand = CUUCAUUUUACACUAAAGCAUAAUGUCAUGAAGUUUCAUAUCUGUACAGAUUAUUUAAAUCAUAGAAAUGAAAAAUGUUCUCUGCUUGCUACCAAAGGACAAACUCUUGGAAACGGACAU; result = 0.48 ratio
Strand = UUUCAUAAUUUUUACUGACGCUCAGUAACCAUGCAAAAUUGUGUAUAGCAUUAAUGUAUCUACAUACCUACACCUAUCUAUAUAUAAGCUCAUGGUAGAAAACCAUAGCUAAGUAGCAUC; result = 0.54 ratio
Strand = CAAAUUUGAUGUUUCGUCAGAGUUACUAGAGUGGAUUUGGCAUGAUAACAUGCAGUUUCUUCAAGACAAAAACAUUUUUGAACAUACAUAUUUUGGAUUUAUGUGGCAAUUGUGUAGUUG; result = 0.286 ratio
Strand = GCGGGCGGCCGCGAGUGAGCAGCGCGCGGGCCUGAGGGUACCUGAAGCUCAGCGCACAGCUGCUGUGACACCGCUGCGUGGACAAUGGCUACUCAAGCUGACCUGAUGGAGUUGGACAUG; result = 0.186 ratio
Strand = AUAACCAUCUAUCGGGAAGAGGGCAUUCUAGGAUUUUUCGCGGGUCUUGUUCCUCGCCUUCUAGGUGACAUCCUUUCUUUGUGGCUGUGUAACUCACUGGCCUACCUCGUCAAUACCUAU; result = 0.241 ratio
Strand = GUUUUUAAUGAUGGCAGUUCCAGGGAGCUGGUGAACCUCACUGGUACAAUCCCAGUGCGUUAUCGAGGUAAUAUAUAUAAUAUUCCAAUAUGCCUGUGGCUGCUGGACACAUACCCAUAU; result = 0.195 ratio
Strand = GAAAUGGAAGAUGCACACACAGCUGUUGUAGGUAUUCCUCACGGCUUGGAAGACUGGUCAUUUUUUGCAGUUUAUGAUGGUCAUGCUGGAUCCCGAGUGGCAAAUUACUGCUCAACACAU; result = 0.228 ratio
Strand = CUUCGGGCUGCUAAUAUUCUUGUAGGAGAAAAUCUUGUGUGCAAAAUAGCAGACUUUGGUUUAGCAAGGUUAAUUGAAGACAAUGAAUACACAGCAAGACAAGGUGCAAAAUUUCCAAUC; result = 20.7 ratio
Strand = UACCUGGACAAAGCACCUCCACCGGGCCUGCCGGUUGAGACCAUUAAGGAUCUAAUGCGUCAGUUUCUAAGCGGCCUGGAUUUUCUUCAUGCAAACUGCAUUGUUCACCGGGACCUGAAG; result = 0.204 ratio
Strand = GGUUUGCAAAUUUUUUUUAAAUGCAAUCUUUUUAUUUUUCUACUUGGUUUUGGUUAUAAUCAUAGAAAGCAAGAAACUAUUAUUGAAAUUAAUGUUUUCUUCUGAUAUAAUAAUGGAAGC; result = 0.818 ratio
Strand = GGGGGUAAUUAUGCUUUGUGAAGUAGGGAUUAAAUGAAGGGAAAACUACAGAGGCGGCUGCGAGAAGGAUGAGUGUGCGCACACCUGUCAGUAAACAGUUGGUCAACCGUAGGGACAGGA; result = 0.68 ratio

Block 2 — technique: protein-binding microarray; molecule type: double-stranded DNA, one strand shown; sample: in vitro; concentration: 0.8 µM; setting: whole 60-bp probe, no competitor; reading: higher = stronger binding; quantity: fluorescence intensity; constant ends, left off below: … GTCTTGATTCGCTTGACGCTGCTG
Target: Centromere-binding protein 1, full length, N-terminal tag (CBF1, Saccharomyces cerevisiae, UniProt P17106, residues 1-351)
Sequence of UniProt P17106 (whole entry, looked up): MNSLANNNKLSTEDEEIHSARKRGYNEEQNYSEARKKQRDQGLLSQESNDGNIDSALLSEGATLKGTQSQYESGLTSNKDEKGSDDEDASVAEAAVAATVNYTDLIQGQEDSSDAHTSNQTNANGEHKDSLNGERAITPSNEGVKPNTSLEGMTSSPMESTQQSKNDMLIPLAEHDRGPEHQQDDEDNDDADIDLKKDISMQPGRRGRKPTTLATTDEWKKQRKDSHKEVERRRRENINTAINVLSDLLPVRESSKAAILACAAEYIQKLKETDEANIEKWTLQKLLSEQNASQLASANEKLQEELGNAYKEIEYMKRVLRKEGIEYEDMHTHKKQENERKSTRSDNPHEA
Strand = CTATAATTGTGCCTTCATGTGCCAAGTAAATTGTTC; result = 699 a.u.
Strand = GAACTTCGACAGCTCACCGTGCCCCTGTCCTTTTAG; result = 494 a.u.
Strand = GAACCTTGGACTAGTCACGTGGAACGGTAGATCTAG; result = 11200 a.u.
Strand = GAAAGAACAGACCATCAGCTTCTGTCACCCTAGTAG; result = 477 a.u.
Strand = CTAGAACACTTTAATCACGCTTATTTAATTAAGTTC; result = 1030 a.u.
Strand = CTACATAATCTCGCGCACGCTCTTGCTATTGACTTC; result = 570 a.u.
Strand = CTACACATATTTCAGCTGACTATAAATTTGGCATTC; result = 729 a.u.
Strand = GAAGTTAGTCTTCATGTGGCGTATTACTTTTCTTAG; result = 541 a.u.
Strand = GAAAGATACGATAGTCTCATGATGACTTTTTCTTAG; result = 574 a.u.
Strand = GAAGAAGATATTTGTGACGTACGTGGACCTTTTTAG; result = 518 a.u.
Strand = GAATTATTCAAAGGTGGTGTTAATTAAGAATGATAG; result = 580 a.u.
Strand = CTAAGTAGCGATAATCACGATCTTGTTAATGATTTC; result = 645 a.u.
Strand = CTAAAGATAAAGCGTCATGTCCACACCAGCTAGTTC; result = 526 a.u.
Strand = CCTAACTACTATAGTGATGAGCCATAGCTTCGTACA; result = 511 a.u.
Strand = TGTACGAAGCTATGCCACATGGCTATAGTAGTTAGG; result = 523 a.u.
Strand = GAACCATCGAACTATCTGGTGGCAAAATTGGCCTAG; result = 517 a.u.
Strand = GAAAATTTCGAAAAGGTGATGACGCCCTATGCATAG; result = 486 a.u.
Strand = CTAGAAAAAATGTACCACGCGAAGTTAAGTGTCTTC; result = 540 a.u.
Strand = GAATTTATCTCATACCACGAGAAAAAAAAATCATAG; result = 656 a.u.
Strand = CTATCAGGTGTATATCACGTGCTCAAACCAGCGTTC; result = 17200 a.u.
Strand = GAATCATTGTTCGGTCACGAATGTGTCATTGACTAG; result = 628 a.u.
Strand = GAACCAGAACTTGCGATGGTGATGGCAAAAAGCTAG; result = 521 a.u.
Strand = GAATTTTCTTCCGTGGGCCTGACGGAACATTCCTAG; result = 484 a.u.
Strand = GAATTTTAATTAATTCATGTGCACAGGCCTGCTTAG; result = 593 a.u.

Block 3 — technique: RNA Bind-n-Seq; molecule type: RNA; sample: in vitro; concentration: 365 nM; relative to: no-protein control; reading: higher = stronger binding; quantity: RBNS enrichment (R)
Target: RNA binding protein fox-1 homolog 2, RRM domain, GST-SBP tag (RBFOX2, Homo sapiens, UniProt O43251-10, residues 100-194)
Setting: natural RNA segment, single round, ends assumed
Constant ends, left off below: GGGAGUUCUACAGUCCGACGAUC … UGGAAUUCUCGGGUGCCAA
Target sequence (chain): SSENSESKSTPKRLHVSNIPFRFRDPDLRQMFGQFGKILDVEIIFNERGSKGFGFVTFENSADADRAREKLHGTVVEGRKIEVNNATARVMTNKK
Strand = AAUGCUAAAAUCUAUUCGCAAGAGUUUUGAGCUAACUUCGUCUCUUAAAUUGCUUUAAUUGUCAUCAAUAAAAACAAAUAUGAAAAACCCUAGUUUAAAAAGCGGUUCAA; result = 0.348
Strand = GCUGACUGCUCCAGACCACUGCAGUGACGACGCCUAGCAGUCCUGCCCUGCUGCUGCUGCCGCCCCGCUACAGAGGCAAUGUGACCAGUCACAGGGACAGAUCACAUCUC; result = 0.372
Strand = AUGGGCUCGCAAGGAUGGGUGCCGCCGUGGGAGCCCUGCCUCUGGUGCUGGCAAGGGAUUGGGUUUGUGUGGGUGUCUCUAGCCUGCAGAGUGCAGUGAGUGAGAGUCCU; result = 0.959
Strand = ACUUUUGUUAUACACAUUUGCUUUGUGUAAAUAAAUGUUUACAAUUUUAUAUGAAAGAUGGAAUAAGCGCUAGAGCUUCCAACUGUAUAUUUUUUACUUUUAUAGAUUUU; result = 1.35
Strand = AAUCAGUGGCACUGUUAAUAUCCGCACAAGAGACAAUAAGGUCCACGGGGAACGCACCAUUUCUGAAACUAUCGAGCGGCUACAGCAGCUCAAAGAGUUCCGCAGCAAAC; result = 0.344
Strand = CAUUUUCAUCACUGAAAGUCAGAGGCCAAGGAAAUCAUUUCUACUUCUUUAAAAACUCCUUCUAAGCAUAUUAAAAUGUGAAAUUUUGCGUACUCUCUCUCUCUAUAUAU; result = 0.68
Strand = CUUCCUUCCCAGAGAAAAUGGAUCCUCUAUGUGGGAUUGUAGGAAAGUGACUGGGUGUGCCAAAAAUGCCCAGGGUUCUGCCCUCAAUACUAUAUUUGAUGGGGCCAAGA; result = 0.291
Strand = UUUCAAUUGUAGAAUUUGGAAUCUGGAAUACAGAAUUGGGAAGAAGAACAGAGAUGACAAAAGACCACUUGAAGAGAGGUUCCUAAUACUAGACAGAUGGAGAGUGGCUU; result = 0.614
Strand = CCUCUGUUUUCAAAUCUGUAAAAUGGGCAAUAAGACUAGAUGAUUUGUAUAUAGCCCAAUGCAUCUCUGGAACUCUGUCUAAACACCAGCCAUCUACUUGGAAUGGGCCC; result = 0.801
Strand = UCCCAGGUAGCUUAGUGUUUAACAUCUCUCUCACCAUCCUGAUGCAGUAGCAUGGCUAUUGCUGAGGUUAUUUUACCUAAUAAUUAGAACUUUGUAUUUACAAAGCAAGU; result = 0.769
Strand = AGAAAAAAUGAGAUUUUACAAGUGAAAUGGAACCUUUUUAUAUAUACAUACAUACAUAUCUAUCUAUCUAUCUAUAUAUAUAUAAAAUAAAGUAAUUUUCCUAAAUAAAA; result = 1.54
Strand = GUUGCAGUGAGCCAAGAUGGCGCCAUUGCACUCCAGCCUGGGCGACAAGAGCAAAACUCCGUCUCAAAAAAAAAAAAAAGAUACAAAGUCUGCAUUUGAUAUAAUGCCUU; result = 0.603

Block 4 — technique: protein binding microarray; molecule type: double-stranded DNA, one strand shown; sample: in vitro; concentration: not given; relative to: not given; reading: higher = stronger binding; quantity: E-score
Target: Histone acetyltransferase KAT6A, winged helix 1, GST fusion (KAT6A, Homo sapiens, UniProt Q92794, residues 1-85)
Setting: 8-mer, flanks averaged, mean of 2 arrays, mostly near background
Construct (chain): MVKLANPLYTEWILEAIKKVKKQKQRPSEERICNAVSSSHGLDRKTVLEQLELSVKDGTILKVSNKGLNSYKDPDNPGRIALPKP
Strand = GCCTCTGA; result = -0.215
Strand = TTATAGAA; result = -0.223
Strand = TAACTGCA; result = -0.149
Strand = CACCGCAG; result = 0.108
Strand = AAGCCAGT; result = -0.324
Strand = CGGGGATA; result = 0.153
Strand = ACCACGTC; result = -0.102
Strand = CCAGCAAA; result = -0.159
Strand = CTTCCGGC; result = 0.12
Strand = GTCGAGCA; result = -0.144
Strand = GTCGTCCA; result = -0.0298
Strand = ACCACCTC; result = -0.208
Strand = GTATCGAC; result = 0.151
Strand = CCCTCCCC; result = 0.144
Strand = ACGACCGT; result = 0.17
Strand = AACCGAGC; result = 0.174
Strand = GAGGCGTA; result = 0.147
Strand = AGGCCACA; result = -0.126
Strand = ATTTCTCA; result = -0.176
Strand = CCTGGTGC; result = -0.0204
Strand = GCCCAGCA; result = -0.0926
Strand = CCCCACTC; result = -0.212
Strand = GACACACC; result = -0.0334
Strand = CAACTCAC; result = -0.291
Strand = CTAGGAAC; result = -0.165

For quick reference, copied from above (block 4):
Strand = CCCTCCCC; result = 0.144
Strand = ACGACCGT; result = 0.17
Strand = AACCGAGC; result = 0.174
Strand = GAGGCGTA; result = 0.147
Strand = AGGCCACA; result = -0.126
Strand = ATTTCTCA; result = -0.176
Strand = CCTGGTGC; result = -0.0204
Strand = GCCCAGCA; result = -0.0926
Strand = CCCCACTC; result = -0.212
Strand = GACACACC; result = -0.0334
Strand = CAACTCAC; result = -0.291
Strand = CTAGGAAC; result = -0.165
